Measured values collected from several papers.
Numbered parts are unrelated; each lists some results of a single study. Substitutions count along the parent as printed.

Block 1
Target: ABI1, truncated, D143A, DHFR fusion (Arabidopsis thaliana)
Method: DHFR PCA, deep sequencing
Sample: yeast
Notes: methotrexate growth selection, single substitutions
Added: (+)-ABA 0.0091 µM
Relative to: wild-type fitted maximum
Direction: higher = stronger binding
Starting sequence: PYL1, truncated, DHFR fusion (Arabidopsis thaliana); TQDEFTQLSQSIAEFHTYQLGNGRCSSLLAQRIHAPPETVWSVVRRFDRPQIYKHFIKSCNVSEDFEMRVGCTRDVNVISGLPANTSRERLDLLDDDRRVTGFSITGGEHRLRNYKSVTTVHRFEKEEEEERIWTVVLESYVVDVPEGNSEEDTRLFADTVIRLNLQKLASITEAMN
For `I162V`, “relative binding score” read 31.8%.
`I105R` — result for “relative binding score”: 1.68%.
For `D3M`, “relative binding score” read 28.1%.
For `S80I`, “relative binding score” read 26.6%.
For `N165M`, “relative binding score” read -0.191%.
`T173W` — result for “relative binding score”: -1.3%.
`L20W` — result for “relative binding score”: 1.59%.
`F103W` — result for “relative binding score”: 0.0469%.
`R32K` — result for “relative binding score”: 29.6%.
For `E131T`, “relative binding score” read 48.7%.
For `P83D`, “relative binding score” read 12.1%.
`F103S`: “relative binding score” -1.51%.
Under “relative binding score”, `G102P` is recorded as -2.23%.
For `V78S`, “relative binding score” read 14.1%.
`S59Q` — result for “relative binding score”: 12.5%.
`Y115R` — result for “relative binding score”: 1.39%.
For `F15H`, “relative binding score” read 11.2%.
`E67T` — result for “relative binding score”: 15.3%.
`D144E`: “relative binding score” -0.302%.
`F5S` — result for “relative binding score”: 3.99%.
Under “relative binding score”, `L138D` is recorded as 4.5%.
For `T106E`, “relative binding score” read 8.26%.
Under “relative binding score”, `E131D` is recorded as 44.2%.

Block 2
Target: CCNA2, cyclin fold, Cln2 fusion (human)
Method: yeast growth competition, sequencing
Sample: yeast
Notes: strong parent motif
Relative to: not given
Direction: higher = stronger binding
Starting sequence: PKN2 docking peptide (human); VSAVRKLDFSDTM; partner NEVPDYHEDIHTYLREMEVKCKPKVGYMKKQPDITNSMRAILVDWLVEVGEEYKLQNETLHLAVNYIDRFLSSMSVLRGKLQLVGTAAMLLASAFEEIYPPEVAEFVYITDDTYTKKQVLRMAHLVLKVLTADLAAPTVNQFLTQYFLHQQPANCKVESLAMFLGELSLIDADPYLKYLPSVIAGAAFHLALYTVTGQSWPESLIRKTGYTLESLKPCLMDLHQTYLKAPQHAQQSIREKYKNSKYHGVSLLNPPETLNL
`T12D`: “normalised enrichment score” 4.93.
For `S10P`, “normalised enrichment score” read 4.68.
`R5E` — result for “normalised enrichment score”: -0.0883.
`L7P`: “normalised enrichment score” 0.211.
Under “normalised enrichment score”, `R5L` is recorded as 1.33.
`D8Y` — result for “normalised enrichment score”: 4.37.
For `D8N`, “normalised enrichment score” read 5.48.
For `A3M`, “normalised enrichment score” read 3.77.
Under “normalised enrichment score”, `R5I` is recorded as 2.06.
`K6L`: “normalised enrichment score” 2.21.
`S2K`: “normalised enrichment score” 5.79.
For `V4I`, “normalised enrichment score” read 5.12.
For `S10V`, “normalised enrichment score” read 4.3.
For `K6D`, “normalised enrichment score” read -0.16.
For `D11C`, “normalised enrichment score” read 5.07.
`K6T` — result for “normalised enrichment score”: 3.73.
`A3C` — result for “normalised enrichment score”: 5.16.
`F9K`: “normalised enrichment score” 0.3.

Block 3
Target: Histone acetyltransferase KAT6A, winged helix 2, GST fusion (KAT6A, Homo sapiens, UniProt Q92794, residues 85-181)
Method: protein binding microarray
Molecule type: double-stranded DNA, one strand shown
Sample: in vitro
Tested at: not given
Notes: 8-mer, flanks averaged, mean of 2 arrays, mostly near background
Relative to: not given
Direction: higher = stronger binding
Target sequence (chain): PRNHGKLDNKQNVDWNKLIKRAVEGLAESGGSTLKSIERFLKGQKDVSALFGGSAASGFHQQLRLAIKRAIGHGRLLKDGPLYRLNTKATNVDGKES
`ACAGAGGA` gave an E-score of 0.0255.
The E-score of `ACAGAATG` is reported as -0.0401.
`ACGCGCCT` has an E-score of -0.0358.
For `AAGGTAAC`, the E-score was -0.0487.
`AAGTCGTA` gave an E-score of -0.216.
The E-score of `ATGAAATG` is reported as -0.0161.
The E-score of `ACCCGTTG` is reported as 0.000415.
`CCGTACCA` has an E-score of 0.041.
With `TGAACGCA` the E-score was 0.0981.
With `AAATGCCC` the E-score was -0.0912.
`CTAATTTC` gave an E-score of 0.0212.
The E-score of `AAAGACAT` is reported as -0.23.
`ATTGGGGA` gave an E-score of -0.0347.
`GCGAAGGA` has an E-score of -0.0303.
The E-score of `TCCCCAGA` is reported as 0.00872.
The E-score of `GGGCTATA` is reported as -0.234.
For `AGTGGTGG`, the E-score was -0.0365.
For `CAAAAGAA`, the E-score was 0.207.
`AAATGAAT` gave an E-score of 0.0554.
With `CGCATCCG` the E-score was 0.0929.
`CTCTGTTC` gave an E-score of 0.00111.
With `AGACGCAG` the E-score was 0.127.
`ACTATGAA` gave an E-score of -0.042.
For `AAATGTCA`, the E-score was -0.0306.
`GCGTTGCA` gave an E-score of 0.106.

Block 4
Target: CEBPB, bZIP domain (human)
Method: DHFR protein complementation
Sample: yeast
Notes: single substitutions, most at no-binding floor
Relative to: wild-type JUN-FOS pair
Direction: higher = stronger binding
Starting sequence: JUN, bZIP domain (human); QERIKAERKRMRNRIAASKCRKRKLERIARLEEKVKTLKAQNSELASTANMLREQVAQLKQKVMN; partner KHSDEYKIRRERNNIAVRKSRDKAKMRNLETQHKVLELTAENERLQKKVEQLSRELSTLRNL
`R53G` has a binding fitness of -1.28 natural log.
`S43W` gave a binding fitness of -1.38 natural log.
With `S47F` the binding fitness was -1.37 natural log.
`L38S` has a binding fitness of -1.58 natural log.
For `S47N`, the binding fitness was -1.32 natural log.
With `E54H` the binding fitness was -1.3 natural log.
`E54L` has a binding fitness of -1.35 natural log.
The binding fitness of `T37V` is reported as -1.24 natural log.
The binding fitness of `N42K` is reported as -1.5 natural log.
`K36S` gave a binding fitness of -1.32 natural log.
With `K36F` the binding fitness was -1.53 natural log.
The binding fitness of `T37P` is reported as -1.5 natural log.
The binding fitness of `I28L` is reported as -1.23 natural log.
With `R30W` the binding fitness was -1.35 natural log.
With `A57P` the binding fitness was -1.48 natural log.
The binding fitness of `I28S` is reported as -1.21 natural log.
The binding fitness of `S43R` is reported as -1.19 natural log.

Block 5
Target: RNA binding protein fox-1 homolog 2, RRM domain, GST-SBP tag (RBFOX2, Homo sapiens, UniProt O43251-10, residues 100-194)
Method: RNA Bind-n-Seq
Molecule type: RNA
Sample: in vitro
Tested at: 365 nM
Notes: natural RNA segment, single round, ends assumed
Relative to: no-protein control
Direction: higher = stronger binding
Residues (chain): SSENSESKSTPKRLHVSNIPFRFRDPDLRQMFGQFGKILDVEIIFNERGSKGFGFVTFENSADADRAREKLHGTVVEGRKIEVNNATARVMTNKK
Under “RBNS enrichment (R)”, `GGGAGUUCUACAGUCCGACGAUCUGUAAAGACAAAAAACUAUAUGUAUGGUUUUGUGGAUUAUGUGUGUUUUGCUAAAGGAAAAAACCAUCCAGGUCACGGGGCACCAAAUUUGAGACAAAUAGUCGGAUUAGUGGAAUUCUCGGGUGCCAA` is recorded as 0.926.
`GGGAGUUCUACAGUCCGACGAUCGCCAAUCAGUUCUUAAUGAGGCACCUGUGUGUAAAUACAUGCUUGGUCUUCUCUGCAGAGAACUGAGGCUAAACUCUGUCCCUACUUCUGGUUUUGCCCUGUCAUGUCGUUGGAAUUCUCGGGUGCCAA`: “RBNS enrichment (R)” 0.26.
`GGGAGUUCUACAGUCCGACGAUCGAGAGGGACAUGAAUCGUGCAUGUUGUUGUUUUUGACAGUGUGGCUGUCAGUUUUGAAUUCCUCCAUCUGAACUGCACUGAAGAACUAGACUAAAGCACCGGGCGGUCCAUGGAAUUCUCGGGUGCCAA` — result for “RBNS enrichment (R)”: 20.2.
`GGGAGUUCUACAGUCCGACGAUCAGCAACCUUGAGCAUCCCACCUCCGUGGGCUUGUGCUAGAGGGUGGGGCUGCCCACCCUACCUAGCUCCCCUUCCCUUCUCCCCAGGUGCCCACCAAUCAACAUUCAGAUUGGAAUUCUCGGGUGCCAA` — result for “RBNS enrichment (R)”: 0.547.
Under “RBNS enrichment (R)”, `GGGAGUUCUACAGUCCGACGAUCACCACCACCACCACCACCACCCCUUUUUAUCCUGGUGUGAAACAAUGGUAAUUUGAUAUAUGGUAUUUAUAUUGGCAUUUUUCAAUCCAGUGUCAGUAGCUGUCACGCGCUGGAAUUCUCGGGUGCCAA` is recorded as 0.72.
For `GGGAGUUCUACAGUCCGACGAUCCUCACUGUCACCCUUUCUGCCUUGGUUUCCCUAGCUGAGCCACGCUGCCCAUGCAGCAGAGGGCAGAAGGCUUGCACUUGGGCCAAAGGGCCUAAGGUCCACUGGACAGUUGGAAUUCUCGGGUGCCAA`, “RBNS enrichment (R)” read 0.383.
`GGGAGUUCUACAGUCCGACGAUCGGAACGCAUCCCACCUUGCCAAAGCACUCAUACCAGUCGACUGUGCUCACUAGCAGGACACUGAAGGGUGUCCUUCAUCAUUAAGGCAGUGUGAUGUCAUGUUUGGUCAUUGGAAUUCUCGGGUGCCAA` — result for “RBNS enrichment (R)”: 0.364.
`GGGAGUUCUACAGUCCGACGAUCGGCUCAGUCCUGUGUGGUGCCCAUGAUCCUUCUGGUGGGGGAAGAGUUUAAGUUAUAGGGCAUUUGGCUCAAAUUUUAAAAGGCCUUUUGUUUACCUAUAUUUCUGGAGGUGGAAUUCUCGGGUGCCAA` — result for “RBNS enrichment (R)”: 0.773.
`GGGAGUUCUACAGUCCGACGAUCCUGUUUAUUUAAGAAACAUAUCUCUUCUUUCUAUGAAAAACAAAUUUUAAAGGCAAUUUAAGUUGCCUUUAGUUGACCGGUAAACUAAUCCAGUUGGAACAUACAUGCUUUGGAAUUCUCGGGUGCCAA` — result for “RBNS enrichment (R)”: 0.371.
`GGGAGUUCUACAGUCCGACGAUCAGGCUCUUUUCAAUUGACUGAUGCUGGGGCCUUCAGUUUUAUUCUCAGUAUAGAUUGCCAGUAUUGUUAAGAGUAUCCAAAGGCCUUUCUAGAUGGAGACAGAAUAACUGUGGAAUUCUCGGGUGCCAA` — result for “RBNS enrichment (R)”: 1.76.
Under “RBNS enrichment (R)”, `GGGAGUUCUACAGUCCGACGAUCUUCACGGGAAGGGUUGGUGUGCUGGCUUUAGACGGGGAGAAACAUCUGGAAGGAUGCUCGAGAGAACAAAUGGAGGUGGUGAAAAUCAAGCUUUGGAUUGUGCAUUCCUAUGGAAUUCUCGGGUGCCAA` is recorded as 0.567.
Under “RBNS enrichment (R)”, `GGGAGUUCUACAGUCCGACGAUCAUCUUUGCUUGCAGCCCUCCGUCCUGCUGAAAACCCCCAUAAGCCAGUGAACACAGAGCAGCUAGAGGCUCCUCCUCUGCUGGCUUAGGGUCAGAAGUACCUCACAGUGGUGGAAUUCUCGGGUGCCAA` is recorded as 1.81.

Block 6
Target: Eukaryotic initiation factor 4A-I (EIF4A1, Homo sapiens, UniProt P60842, residues 1-406, full length assumed)
Sequence of UniProt P60842 (whole entry, looked up): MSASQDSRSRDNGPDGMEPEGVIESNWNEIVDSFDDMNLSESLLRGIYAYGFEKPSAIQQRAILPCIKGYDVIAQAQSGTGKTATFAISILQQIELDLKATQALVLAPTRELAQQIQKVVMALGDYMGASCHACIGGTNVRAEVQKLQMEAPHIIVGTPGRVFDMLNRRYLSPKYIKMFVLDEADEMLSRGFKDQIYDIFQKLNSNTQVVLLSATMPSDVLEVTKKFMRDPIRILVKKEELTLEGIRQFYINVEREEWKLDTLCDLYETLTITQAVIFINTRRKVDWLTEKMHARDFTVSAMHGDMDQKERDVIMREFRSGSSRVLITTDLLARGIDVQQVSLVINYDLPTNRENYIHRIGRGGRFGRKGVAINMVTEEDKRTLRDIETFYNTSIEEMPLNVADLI
Method: RNA Bind-n-Seq
Molecule type: RNA
Sample: in vitro
Tested at: 90 pmol
Notes: 4-mer, random 30-nt RNA, single round
Added: 3 µM iPr-DMDA-PatA, 2 mM ADP, 2 mM phosphate
Relative to: input library
Direction: higher = stronger binding
`GCGG` gave a 4-mer enrichment of 0.616 fold.
`CUAA` has a 4-mer enrichment of 1.21 fold.
`AGGU` has a 4-mer enrichment of 0.962 fold.
`GGUC` gave a 4-mer enrichment of 0.785 fold.
`ACCG` has a 4-mer enrichment of 0.96 fold.
The 4-mer enrichment of `CCAU` is reported as 0.973 fold.
With `ACCU` the 4-mer enrichment was 1.07 fold.
For `AACA`, the 4-mer enrichment was 1.36 fold.
For `UCGA`, the 4-mer enrichment was 1.19 fold.
For `UACA`, the 4-mer enrichment was 1.19 fold.
`GUGC` gave a 4-mer enrichment of 0.718 fold.
For `GGGC`, the 4-mer enrichment was 0.53 fold.
With `GGGA` the 4-mer enrichment was 0.748 fold.
`CCCC` has a 4-mer enrichment of 0.973 fold.
`GACC` gave a 4-mer enrichment of 1.09 fold.
For `CGGG`, the 4-mer enrichment was 0.592 fold.
`GUGA` gave a 4-mer enrichment of 1.02 fold.
With `UGUC` the 4-mer enrichment was 0.922 fold.
With `GGGG` the 4-mer enrichment was 0.496 fold.

For quick reference, copied from above (block 4):
`L38S` has a binding fitness of -1.58 natural log.
With `E54H` the binding fitness was -1.3 natural log.
With `R30W` the binding fitness was -1.35 natural log.
`S43W` gave a binding fitness of -1.38 natural log.
With `S47F` the binding fitness was -1.37 natural log.
The binding fitness of `T37P` is reported as -1.5 natural log.
The binding fitness of `T37V` is reported as -1.24 natural log.
